Published values pooled from the literature.
Protocols differ between the studies behind these lines. Numbers after ± are the reported error. In brackets after ≈: the same amount, converted by molar mass.
Target: Cytochrome P450 2C9 (CYP2C9, Homo sapiens, UniProt P11712)
UniProt P11712, sequence (whole entry, looked up): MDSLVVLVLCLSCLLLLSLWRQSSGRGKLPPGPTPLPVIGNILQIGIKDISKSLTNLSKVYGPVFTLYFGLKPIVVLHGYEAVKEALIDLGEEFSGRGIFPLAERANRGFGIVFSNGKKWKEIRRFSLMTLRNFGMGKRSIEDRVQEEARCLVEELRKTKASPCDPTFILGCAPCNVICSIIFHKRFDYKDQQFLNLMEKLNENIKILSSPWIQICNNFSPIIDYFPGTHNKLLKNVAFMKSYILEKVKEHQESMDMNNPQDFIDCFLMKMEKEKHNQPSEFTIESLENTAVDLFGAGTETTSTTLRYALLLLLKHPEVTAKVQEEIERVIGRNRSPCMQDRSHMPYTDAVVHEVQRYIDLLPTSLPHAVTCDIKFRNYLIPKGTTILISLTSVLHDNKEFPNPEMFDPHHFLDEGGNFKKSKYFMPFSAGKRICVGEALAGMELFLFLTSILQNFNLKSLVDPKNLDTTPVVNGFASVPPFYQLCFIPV

SMILES = CN(C(=O)n1cnc(-c2ccc[n+]([O-])c2)c1)C1CCCCC1; assay = enzyme activity, inhibitor; test system = pooled human liver microsomes; conditions = 0.1 to 30 µg/mL; measurement = inhibition; result = no effect
SMILES = C[C@H]1CN(C2COC2)CCN1c1ccc(Nc2cc(-c3ccnc(N4CCn5c(cc6c5CC(C)(C)C6)C4=O)c3CO)cn(C)c2=O)nc1; assay = substrate; test system = recombinant enzyme; conditions = 1 µM, 60 min; measurement = remaining compound; result = 85.6 ± 6.6%
SMILES = CCCCC1=NC2(CCCC2)C(=O)N1Cc1ccc(-c2ccccc2S(=O)(=O)Nc2noc(C)c2C)c(COCC)c1; assay = substrate; test system = human liver microsomes; measurement = intrinsic clearance; result = 0.212 µL/min/pmol
SMILES = CC(C)=CCc1cc2c(cc1O)O[C@H](c1ccc(O)cc1)CC2=O; assay = phase I metabolism, substrate; test system = recombinant enzyme; conditions = pH 7.4; measurement = CLint; result = 108 µL/min/mg
SMILES = CCc1cc(/C(C)=N/OCc2ccc(C3CCCCC3)c(C(F)(F)F)c2)ccc1CN1CC(C(=O)O)C1; assay = population PK; test system = human, CYP2C9*1/*2, plasma; measurement = CYP2C9-mediated clearance; result = 2.52 L/h
SMILES = CC(C)=CCc1c(O)cc2c(c1O)C(=O)C[C@@H](c1ccc(O)cc1)O2; conditions = 1 µM, pH 7.4; measurement = inhibition; result = < 10%
SMILES = C=CC(=O)Nc1cc(Nc2nccc(-c3cn(C)c4ccccc34)n2)c(OCC(F)(F)F)nc1N(C)CCN(C)C; assay = substrate depletion; test system = recombinant human CYP; conditions = 1 µM; measurement = intrinsic clearance; result = 0.3 µL/min/pmol
SMILES = COc1cc(O)c(CC=C(C)C)c(O)c1C(=O)/C=C/c1ccc(O)cc1; assay = enzyme activity, inhibitor; test system = human liver microsomes; conditions = 10 µM, pH 7.4, added: tolbutamide; measurement = inhibition; result = 69.7 ± 3%
SMILES = O=C(O)/C=C/c1ccccc1; assay = inhibitor; measurement = IC50; result = 30 µg/mL (≈ 202 µM)
SMILES = N#C[C@H](C[C@@H]1CCCNC1=O)NC(=O)[C@H](CC1CC1)NC(=O)c1cc2cccc(Cl)c2[nH]1; assay = ISEF abundance scaling; conditions = 2 µM, pH 7.4; measurement = fraction metabolised; result = < 1%
SMILES = COc1cc(O)c(CC=C(C)C)c2c1C(=O)CC(c1ccc(O)cc1)O2 (centres unmarked); assay = enzyme activity, inhibitor; test system = human liver microsomes; conditions = 10 µM, pH 7.4, added: tolbutamide; measurement = inhibition; result = 82.1 ± 1.7%

Excerpt of the above:
SMILES = CN(C(=O)n1cnc(-c2ccc[n+]([O-])c2)c1)C1CCCCC1; assay = enzyme activity, inhibitor; test system = pooled human liver microsomes; conditions = 0.1 to 30 µg/mL; measurement = inhibition; result = no effect
